Results from different studies.
Every numbered part comes from another study and shows a few of its results, in no order. Values joined by “and” are separate records of one study, mostly repeats; a detail may differ.
Chain of UniProt Q9Y243 (whole entry, looked up): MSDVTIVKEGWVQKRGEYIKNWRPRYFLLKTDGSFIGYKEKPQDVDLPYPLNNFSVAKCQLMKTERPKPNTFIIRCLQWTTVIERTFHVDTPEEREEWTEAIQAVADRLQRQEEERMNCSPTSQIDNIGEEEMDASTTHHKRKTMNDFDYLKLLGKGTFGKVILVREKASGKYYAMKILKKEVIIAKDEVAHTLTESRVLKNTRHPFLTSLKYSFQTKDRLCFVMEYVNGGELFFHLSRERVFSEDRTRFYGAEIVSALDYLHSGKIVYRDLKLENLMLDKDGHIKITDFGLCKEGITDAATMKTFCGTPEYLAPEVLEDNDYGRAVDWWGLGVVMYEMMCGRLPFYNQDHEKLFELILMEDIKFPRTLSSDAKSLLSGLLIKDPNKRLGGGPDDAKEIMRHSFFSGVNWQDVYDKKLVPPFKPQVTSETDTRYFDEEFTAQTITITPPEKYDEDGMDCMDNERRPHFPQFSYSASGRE
Chain of UniProt P35626 (whole entry, looked up): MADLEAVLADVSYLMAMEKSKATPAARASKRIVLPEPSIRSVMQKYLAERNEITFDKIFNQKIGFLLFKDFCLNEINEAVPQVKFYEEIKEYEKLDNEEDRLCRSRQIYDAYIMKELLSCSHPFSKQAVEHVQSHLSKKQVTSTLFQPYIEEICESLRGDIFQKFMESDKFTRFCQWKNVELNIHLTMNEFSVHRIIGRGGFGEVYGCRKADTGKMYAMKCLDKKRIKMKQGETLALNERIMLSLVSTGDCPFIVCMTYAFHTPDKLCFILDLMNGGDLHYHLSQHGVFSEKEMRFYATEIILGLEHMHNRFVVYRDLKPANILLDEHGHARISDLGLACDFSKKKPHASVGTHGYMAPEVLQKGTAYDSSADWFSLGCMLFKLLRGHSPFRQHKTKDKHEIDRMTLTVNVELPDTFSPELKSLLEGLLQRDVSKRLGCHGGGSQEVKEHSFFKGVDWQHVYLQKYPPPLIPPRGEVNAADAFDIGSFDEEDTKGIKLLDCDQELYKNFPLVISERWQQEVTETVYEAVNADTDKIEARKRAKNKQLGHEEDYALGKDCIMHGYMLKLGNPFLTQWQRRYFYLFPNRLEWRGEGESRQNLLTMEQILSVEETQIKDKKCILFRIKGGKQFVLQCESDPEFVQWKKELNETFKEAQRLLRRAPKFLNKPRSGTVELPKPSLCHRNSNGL
Chain of UniProt P15735 (whole entry, looked up): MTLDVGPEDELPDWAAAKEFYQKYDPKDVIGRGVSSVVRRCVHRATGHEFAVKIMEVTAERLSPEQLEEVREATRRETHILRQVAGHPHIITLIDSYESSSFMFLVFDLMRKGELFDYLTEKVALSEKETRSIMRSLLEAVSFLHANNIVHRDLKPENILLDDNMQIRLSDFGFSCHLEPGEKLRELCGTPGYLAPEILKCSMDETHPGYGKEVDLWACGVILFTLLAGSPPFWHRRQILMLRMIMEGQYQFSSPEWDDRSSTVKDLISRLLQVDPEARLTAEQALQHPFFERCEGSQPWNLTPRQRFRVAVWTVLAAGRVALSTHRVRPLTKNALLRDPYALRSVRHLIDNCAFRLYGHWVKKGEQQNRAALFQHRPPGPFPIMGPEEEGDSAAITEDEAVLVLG
Chain of UniProt P23443 (whole entry, looked up): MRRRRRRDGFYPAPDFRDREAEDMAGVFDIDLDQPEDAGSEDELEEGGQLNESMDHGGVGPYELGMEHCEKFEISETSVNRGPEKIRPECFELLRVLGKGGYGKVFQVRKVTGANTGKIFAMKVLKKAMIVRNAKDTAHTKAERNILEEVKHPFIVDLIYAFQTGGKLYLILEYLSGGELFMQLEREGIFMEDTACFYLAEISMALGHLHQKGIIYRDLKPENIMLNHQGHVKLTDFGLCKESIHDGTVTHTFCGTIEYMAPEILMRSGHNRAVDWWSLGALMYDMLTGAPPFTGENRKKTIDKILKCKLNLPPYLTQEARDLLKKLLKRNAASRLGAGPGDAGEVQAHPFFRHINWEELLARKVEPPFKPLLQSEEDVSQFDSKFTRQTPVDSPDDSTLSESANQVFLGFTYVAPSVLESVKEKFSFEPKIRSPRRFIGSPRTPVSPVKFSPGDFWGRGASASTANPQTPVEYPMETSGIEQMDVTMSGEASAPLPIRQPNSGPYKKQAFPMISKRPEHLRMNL
Chain of UniProt O95819 (whole entry, looked up): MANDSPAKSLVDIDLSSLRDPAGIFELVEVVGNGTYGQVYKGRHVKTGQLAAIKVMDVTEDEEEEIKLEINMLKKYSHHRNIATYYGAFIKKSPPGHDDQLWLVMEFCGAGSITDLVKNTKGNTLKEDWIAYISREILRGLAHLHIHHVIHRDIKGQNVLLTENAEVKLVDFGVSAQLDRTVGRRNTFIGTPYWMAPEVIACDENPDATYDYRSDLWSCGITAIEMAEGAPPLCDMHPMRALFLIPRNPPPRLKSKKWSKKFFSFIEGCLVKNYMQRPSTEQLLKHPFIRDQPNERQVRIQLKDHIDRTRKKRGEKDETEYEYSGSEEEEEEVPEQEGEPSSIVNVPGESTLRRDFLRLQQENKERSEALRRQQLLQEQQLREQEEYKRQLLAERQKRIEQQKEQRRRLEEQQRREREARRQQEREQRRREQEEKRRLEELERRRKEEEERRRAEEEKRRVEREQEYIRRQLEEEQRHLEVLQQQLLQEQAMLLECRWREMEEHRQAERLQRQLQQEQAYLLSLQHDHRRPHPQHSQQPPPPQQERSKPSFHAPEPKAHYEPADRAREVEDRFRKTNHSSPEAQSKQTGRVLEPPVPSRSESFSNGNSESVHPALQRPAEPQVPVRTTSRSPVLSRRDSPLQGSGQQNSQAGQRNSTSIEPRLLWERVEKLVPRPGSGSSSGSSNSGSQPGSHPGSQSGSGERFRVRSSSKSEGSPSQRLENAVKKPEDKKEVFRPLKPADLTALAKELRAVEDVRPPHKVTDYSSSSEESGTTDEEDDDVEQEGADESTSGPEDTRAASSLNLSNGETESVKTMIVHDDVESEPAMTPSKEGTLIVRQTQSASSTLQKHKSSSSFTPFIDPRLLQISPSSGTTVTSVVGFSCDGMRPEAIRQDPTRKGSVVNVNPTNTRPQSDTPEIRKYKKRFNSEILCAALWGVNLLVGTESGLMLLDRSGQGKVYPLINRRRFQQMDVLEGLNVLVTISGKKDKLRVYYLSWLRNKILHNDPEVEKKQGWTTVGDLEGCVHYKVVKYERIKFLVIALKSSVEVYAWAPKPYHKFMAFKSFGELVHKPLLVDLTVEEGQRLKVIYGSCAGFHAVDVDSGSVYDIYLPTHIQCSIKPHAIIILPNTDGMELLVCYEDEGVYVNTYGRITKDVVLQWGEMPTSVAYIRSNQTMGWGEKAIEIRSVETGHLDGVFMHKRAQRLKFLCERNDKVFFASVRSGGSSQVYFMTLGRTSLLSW
Chain of UniProt Q16816 (whole entry, looked up): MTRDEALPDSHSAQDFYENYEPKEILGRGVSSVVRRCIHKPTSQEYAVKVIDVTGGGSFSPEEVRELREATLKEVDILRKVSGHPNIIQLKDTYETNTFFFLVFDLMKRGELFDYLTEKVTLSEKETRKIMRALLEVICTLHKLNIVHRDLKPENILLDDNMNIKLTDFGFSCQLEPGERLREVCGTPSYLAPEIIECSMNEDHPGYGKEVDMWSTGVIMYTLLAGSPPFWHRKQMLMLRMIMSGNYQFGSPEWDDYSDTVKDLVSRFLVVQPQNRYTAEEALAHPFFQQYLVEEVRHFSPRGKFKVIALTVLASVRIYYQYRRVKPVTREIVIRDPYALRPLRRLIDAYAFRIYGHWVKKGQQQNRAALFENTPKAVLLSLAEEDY

Series 1
Cell line: mouse MPNST tumor cells
Method: high-content nuclear imaging
Measured: cell number
Concentration: 10 µM
Time: 12 h
Setting: mean of 2 replicates
Reference: plate mean
Reading: higher = more cells
| SMILES | nuclei count |
| --- | --- |
| NCCNCCNCCNCCN | 0.04 z-score |
| O=C(O)c1ccccc1Nc1cccc(C(F)(F)F)c1 | -0.352 z-score |
| O=C(O)CCC=CCC1COC(c2ccccc2Cl)OC1c1ccccc1O (centres unmarked) | -0.309 z-score |
| COc1ccncc1C(=O)NC(=O)Nc1ccc(-c2ccccc2)c(C(F)(F)F)c1 | -0.777 z-score |
| O=C(Nc1ccc([N+](=O)[O-])cc1Cl)c1cc(Cl)ccc1O | 3.56 z-score and 1.4 z-score |
| C#C[C@]1(O)CC[C@H]2[C@@H]3CCC4=Cc5oncc5C[C@]4(C)[C@H]3CC[C@@]21C | 4.25 z-score |
| COc1ccc(CC(=O)NC(/N=C(\NC#N)Nc2cccc3ncccc23)C(C)(C)C)cc1OC (centres unmarked) | 0.425 z-score |

Series 2
Organism: Plasmodium berghei
Action: inhibitor
Cell line: Huh-7
Strain: GFP-expressing sporozoites, liver stage
Concentration: 10 µM
Time: 24 h
Reference: untreated control
| Structure (SMILES) | infection rate [%] |
| --- | --- |
| CN(C)c1ccc(O)c2c1C[C@H]1C[C@H]3[C@H](N(C)C)C(O)=C(C(N)=O)C(=O)[C@@]3(O)C(O)=C1C2=O | 10 |
| NS(=O)(=O)c1cc2c(cc1C(F)(F)F)NC(Cc1ccccc1)NS2(=O)=O (centres unmarked) | 85.6 |
| O=C1CCc2cc(OCCCCc3nnnn3C3CCCCC3)ccc2N1 | 90.8 |
| CC1=C(C(=O)O)N2C(=O)[C@@H](NC(=O)[C@H](N)C3=CCC=CC3)[C@H]2SC1 | 96.4 |
| Nc1ccc(S(=O)(=O)c2ccc(N)cc2)cc1 | 105 |
| NCC(=O)CCC(=O)O | 113 |

Series 3
Host: mouse
Medium: microsomes or S9
Concentration: 2 µM
Time: 0.5 h
| SMILES | remaining compound |
| --- | --- |
| Nc1nc2n(c1C(=O)c1ccc3c(c1)CCCC3)CCC2 | 12.2% |
| CC(C)(C)OC(=O)N1CCCCC1CCOc1ccc2c(c1)CN(c1ccc(S(C)(=O)=O)cc1F)C2=O (centres unmarked) | 34.9% |
| CC(C)(C)CCN1CCN(C(=O)c2nccnc2N)CC1 | 69.4% |
| CSc1cccc(NC(=O)N2Cc3c(sc4c3CCCC4)-n3cccc3C2C)c1 (centres unmarked) | 14.4% |

Series 4
SMILES: COc1cc(C(=O)N2CCC(N3CCN(C)CC3)CC2)ccc1Nc1ncc2c(n1)N(C)c1ccccc1C(=O)N2C
| target | assay | system | setting | inhibition |
| --- | --- | --- | --- | --- |
| RSKL1 kinase domain 1 (human) | probe labelling, KiNativ, measured: kinase domain site peptide | PBMC lysate (human) | 1 µM, together with: ADP acyl-phosphate probe | -9.4% |
| SGK2 (mouse) | probe labelling, inhibitor, KiNativ ActivX ATP probe | mouse brain lysate | 0.1 µM, Lys1 site peptide | 0.6% |
| NEK9 (mouse) | probe labelling, KiNativ ATP probe | mouse brain lysate | 1 µM, LYS1 labelled site | 2.2% |
| LRRK2 | KiNativ ADP probe | mouse brain lysate | 1 µM, LYS1 site | -26.7% |
| mouse MER and TYRO3 | probe labelling, KiNativ ATP probe | mouse brain lysate | 0.1 µM | 3.1% |

Series 5
Compound: CNC(=O)Nc1ccc2c(c1)CC[C@@]21OC(=O)N(CC(=O)N(Cc2ccc(F)cc2)[C@@H](C)C(F)(F)F)C1=O
Read-out: cell-free assay
Method: competition with immobilised ligand
Concentration: 1 µM
| target | remaining binding |
| --- | --- |
| Cyclin-dependent kinase 4, with cyclin D1 (CDK4, Homo sapiens, UniProt P11802) | 91% |
| Mitogen-activated protein kinase kinase kinase kinase 4 (MAP4K4, Homo sapiens, UniProt O95819) | 87% |
| Phosphatidylinositol 4,5-bisphosphate 3-kinase catalytic subunit gamma isoform (PIK3CG, Homo sapiens, UniProt P48736) | 95% |
| Tyrosine-protein kinase receptor Tie-1 (TIE1, Homo sapiens, UniProt P35590) | 89% |
| Mitogen-activated protein kinase kinase kinase 2 (MAP3K2, Homo sapiens, UniProt Q9Y2U5) | 100% |
| Tyrosine-protein kinase ABL1, phosphorylated (ABL1, Homo sapiens, UniProt P00519, F317L) | 77% |
| Serine/threonine-protein kinase 26 (STK26, Homo sapiens, UniProt Q9P289) | 90% |
| Ribosomal protein S6 kinase beta-1 (RPS6KB1, Homo sapiens, UniProt P23443) | 100% |
| RAC-gamma serine/threonine-protein kinase (AKT3, Homo sapiens, UniProt Q9Y243) | 100% |
| Serine/threonine-protein kinase Nek9 (NEK9, Homo sapiens, UniProt Q8TD19) | 78% |
| Ribosomal protein S6 kinase alpha-1, N-terminal kinase domain (RPS6KA1, Homo sapiens, UniProt Q15418) | 86% |
| Serine/threonine-protein kinase pim-3 (PIM3, Homo sapiens, UniProt Q86V86) | 97% |
| Phosphorylase b kinase gamma catalytic chain, skeletal muscle/heart isoform (PHKG1, Homo sapiens, UniProt Q16816) | 100% |
| Serine/threonine-protein kinase MARK2 (MARK2, Homo sapiens, UniProt Q7KZI7) | 100% |
| Rhodopsin kinase GRK7 (GRK7, Homo sapiens, UniProt Q8WTQ7) | 83% |
| Receptor tyrosine-protein kinase erbB-2 (ERBB2, Homo sapiens, UniProt P04626) | 100% |
| Phosphatidylinositol 4,5-bisphosphate 3-kinase catalytic subunit alpha isoform (PIK3CA, Homo sapiens, UniProt P42336, C420R) | 80% |
| Serine/threonine-protein kinase D2 (PRKD2, Homo sapiens, UniProt Q9BZL6) | 100% |
| Tyrosine-protein kinase JAK2, JH1 (JAK2, Homo sapiens, UniProt O60674) | 83% |
| G protein-coupled receptor kinase 3 (GRK3, Homo sapiens, UniProt P35626) | 100% |
| Tyrosine-protein kinase BTK (BTK, Homo sapiens, UniProt Q06187) | 87% |
| Phosphorylase b kinase gamma catalytic chain, liver/testis isoform (PHKG2, Homo sapiens, UniProt P15735) | 97% |
